Published values collected from several papers.
Compare with care: the assays were run in different laboratories. Numbers after ± are the reported error.
U2AF2: U2AF2 148-342 (Homo sapiens, UniProt P26368)
Chain of UniProt P26368 (whole entry, looked up): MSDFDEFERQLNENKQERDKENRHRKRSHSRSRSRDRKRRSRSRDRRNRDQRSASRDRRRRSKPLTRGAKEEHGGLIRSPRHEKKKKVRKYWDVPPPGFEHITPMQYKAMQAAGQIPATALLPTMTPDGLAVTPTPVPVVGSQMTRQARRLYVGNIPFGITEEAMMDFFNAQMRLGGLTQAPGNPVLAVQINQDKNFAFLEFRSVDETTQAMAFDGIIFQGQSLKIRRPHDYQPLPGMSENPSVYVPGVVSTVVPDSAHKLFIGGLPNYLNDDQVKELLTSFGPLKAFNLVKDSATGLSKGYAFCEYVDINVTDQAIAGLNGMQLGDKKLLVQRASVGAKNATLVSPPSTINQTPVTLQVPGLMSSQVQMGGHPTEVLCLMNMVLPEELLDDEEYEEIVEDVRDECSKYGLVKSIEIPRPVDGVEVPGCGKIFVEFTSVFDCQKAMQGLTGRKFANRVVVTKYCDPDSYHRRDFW
B1: enzyme (Lacticaseibacillus rhamnosus, UniProt A0A7S7JIA0); chain MSEPLPRIKRYEDLGLGLFIHWGLYSQLAVGEWTEFIHHRSRSEYEKLIATFTANQFDAEAIAHAAKMMGAKYIVLTTKHHEGFFLYDTKGLSSFDVMHSPANRDLIAEFVAACRKEGLLPFFYVATYDWHSPLYEENFPAYLDYLKASVEVLCRHYGPVGGFWFDGNWNKKEADWQLPALYGMIRKYQPDAIIVNNTGLKNRGKVSDPEIDVVTYERRTPDEIYHGAPNAKYVAGEISMTLNQHWGIATNDLNYKSPAEVIETVAHARHIGANILVNIGLTGQGAIPASAKTYMALLGRWTTMAAPALYRGRPTAIVSGQGARDFVLHADAHDYLCVFDLKVVGNDNVVLGGEGVNPRSFVGIDRPIESVYWLDNEEYLSFTQDLHKRVLTVDATGYPYGSDWVVRIAQIDYKSENRTVKSD
B2: enzyme (Lactiplantibacillus plantarum, UniProt Q06115); chain CTAITYQSYNNYFGRNFDYEISYNEMVTITPRKYPLVFRKVENLDHHYAIIGITADVESYPLYYDAMNEKGLCIAGLNFAGYADYKKYDADKVNITPFELIPWLLGQFSSVREVKKNIQKLNLVNINFSEQLPLSPLHWLVADKQESIVIESVKEGLKIYDNPVGVLTNNPNFDYQLFNLNNYRALSNSTPQNSFSEKVDLDSYSRGMGGLGLPGDLSSMSRFVRAAFTKLNSLSMQTESGSVSQFFHILGSVEQQKGLCEVTDGKYEYTIYSSCCDMDKGVYYYRTYDNSQINSVSLNHEHLDTTELISYPLRSEAQYYAVN
B3: enzyme C74S (UniProt A0A0P0CH59); chain MRIALFSDIHANLPALEAVLANMETQQLDAIYCLGDLVGYAPWPNEVVAEIRKRRIPTIAGNYDEGVGLWSPNSGCAYKTDTEKDLGQQSIDFTNNVVTEETRKYLRMLPRQLRLTFMDGSKEENKIELLLVHGSPRKINEYLFEDRPEKSFLKMMEEANADLLFFGHTHKPYHRAMPYEHEGQTRYRHAINIGSVGKPKDGDPRTGYVVVELTPESSLTQKDSIKVEFIRVPYDVETAAQAVEASPLPNEFAQMLRTA
B4: enzyme S252E (Schizosaccharomyces pombe, UniProt P78804); chain MSTPYEPEFQQAYKEIVGSIESSKLFEVHPELKRVLPIISIPERVLEFRVTWEDDKGNCRVNTGYRVQFNSALGPYKGGLRFHPSVNLSILKFLGFEQIFKNALTGLPMGGGKGGSDFDPKGKSDNEIRRFSQAFMRQLFRYIGPQTDVPAGDIGVTGFVVMHMFGEYKRLRNEYSGVVTGKHMLTGGSNIRPEATGYGVVYYVKHMIEHRTKGAETLKGKRVAISGSGNVAQYAALKCIQEGAIVKSISDEKGVLIAKTAEGLVPEEIHEIMALKEKRASIADSASLCKKHHYIAGARPWTNVGEIDIALPCATQNEVSGEEAAALIKQGCRYVAEGSNMGSSAEAVEVFEKSRASGEGCWLAPGKAANAGGVAVSGLEMAQNAQFSTWTHAEVDAKLAGIMQNIFEQSTDVASKYCDSGSNNIPSLVDGANIAGFLKVATAMQAVGDWW
B5: DCK (Homo sapiens, UniProt P27707); chain MATPPKRSCPSFSASSEGTRIKKISIEGNIAAGKSTFVNILKQLCEDWEVVPEPVARWCNVQSTQDEFEELTMSQKNGGNVLQMMYEKPERWSFTFQTYACLSRIRAQLASLNGKLKDAEKPVLFFERSVYSDRYIFASNLYESECMNETEWTIYQDWHDWMNNQFGQSLELDGIIYLQATPETCLHRIYLRGRNEEQGIPLEYLEKLHYKHESWLLHRTLKTNFDYLQEVPILTLDVNEDFKDKYESLVEKVKEFLSTL
B6: enzyme (UniProt Q83XK4); chain MATRIAILGAGPSGMAQLRAFQSAQEKGAEIPELVCFEKQADWGGQWNYTWRTGLDENGEPVHSSMYRYLWSNGPKECLEFADYTFDEHFGKPIASYPPREVLWDYIKGRVEKAGVRKYIRFNTAVRHVEFNEDSQTFTVTVQDHTTDTIYSEEFDYVVCCTGHFSTPYVPEFEGFEKFGGRILHAHDFRDALEFKDKTVLLVGSSYSAEDIGSQCYKYGAKKLISCYRTAPMGYKWPENWDERPNLVRVDTENAYFADGSSEKVDAIILCTGYIHHFPFLNDDLRLVTNNRLWPLNLYKGVVWEDNPKFFYIGMQDQWYSFNMFDAQAWYARDVIMGRLPLPSKEEMKADSMAWREKELTLVTAEEMYTYQGDYIQNLIDMTDYPSFDIPATNKTFLEWKHHKKENIMTFRDHSYRSLMTGTMAPKHHTPWIDALDDSLEAYLSDKSEIPVAKEA
B7: enzyme (Azotobacter vinelandii, UniProt C1DN94); chain MSESPLRLDRLRDFVSALGELLDRHPDEESVLREGRSLLGELVRHDDWLPEEFAQPDPERYQQYLLHADSRQRFSVVSFVWGPGQTTPVHDHRVWGLIGMLRGAEDAQSFELGAEGLRPIGDPVRLSPGQVEAVSPRIGDIHRVFNASPDQPSISIHVYGANIGAVRRAVYLPDGSEKPFISGYSNQFLPNIWDQSKESARP
B8: enzyme (Arabidopsis thaliana, UniProt Q9FJN8); chain TSGGGYGDPSQKIDYVFKVVLIGDSAVGKSQILARYARDEFSLDSKATIGVEFQTRTLVIDHKSVKAQIWDTAGQERYRAVTSAYYRGAVGAMLVYDITRRQTFDHIPRWLEELRAHADKNIVIILIGNKSDLVDQRAIPTEDAKEFAEKEGLFFLETSAFNATNVESAFSTVLTEIFNIVNKKSLAASEDQENGNPGSLAGKKIDIVPGPGQVIPNKSNMCCNS
B9: enzyme (Nitrosopumilus maritimus, UniProt A9A5X4); chain MDSQKFDSIIFDCDGVLVDITQSYDKTIDKTCRYVLKEFAKIDSITIDHKIIDGFKSSGGFNDEVDLVYAAILSLYTANKLNKKPSEFIYDVISNTDKTGIRSVQSYLESIYDVSEFLSKLGSLGDRHNNPVYSIFDQFFFGPELYGKLFDKQSKFSEEGMISNDKVILSVSLLETLQKEFGKKIAVVTGRGIESIRYSLKDMMDYFDTKNSAFLEDEPRELAKPNPATLIRAIQSMESKNCLYVGDSMEDYMMAKDAAQAGHSTTFCAIVGTSTNPEDRRKLFADSGVEMILESINDIPKVLNLV
B10: aspC A106G/A17N/A218G/A278L/A281T/A8Q/D18E/F210I/F212I/F350Y/G15S/G249S/I187A/I279A/I29V/I33V/I341V/I5L/I68L/I71L/L46M/M321L/M380L/N285S/N30D/N64T/S129T/S135A/S273G/S351L/T100S/V125I/V136I/V375I/Y244C (Escherichia coli, UniProt P00509); chain MFENLTAQPADPILSLNELFRADERPGKVDLGVGVYKDETGKTPVMTSVKKAEQYLLENETTKTYLGLDGLPEFGRCTQELLFGKGSALINDKRARTAQSPGGTGGLRVAADFLAKNTSVKRVWISNPTWPNHKAIFNSAGLEVREYAYYDAENHTLDFDALINSLNEAQAGDVVLFHGCCHNPTGADPTLEQWQTLAQLSVEKGWLPLIDIAYQGFGRGLEEDAEGLRAFAAMHKELIVASSCSKNFSLYNERVGACTLVAADSETVDRAFGQMKALARTNYSSPPAHGASVVATILSNDALRAIWEQELTDMRQRIQRLRQLFVNTLQEKGANRDFSFVIKQNGMFSYLGLTKEQVLRLREEFGVYAVASGRINVAGLTPDNMAPLCEAIVAVL
Chain of UniProt P09546 (whole entry, looked up): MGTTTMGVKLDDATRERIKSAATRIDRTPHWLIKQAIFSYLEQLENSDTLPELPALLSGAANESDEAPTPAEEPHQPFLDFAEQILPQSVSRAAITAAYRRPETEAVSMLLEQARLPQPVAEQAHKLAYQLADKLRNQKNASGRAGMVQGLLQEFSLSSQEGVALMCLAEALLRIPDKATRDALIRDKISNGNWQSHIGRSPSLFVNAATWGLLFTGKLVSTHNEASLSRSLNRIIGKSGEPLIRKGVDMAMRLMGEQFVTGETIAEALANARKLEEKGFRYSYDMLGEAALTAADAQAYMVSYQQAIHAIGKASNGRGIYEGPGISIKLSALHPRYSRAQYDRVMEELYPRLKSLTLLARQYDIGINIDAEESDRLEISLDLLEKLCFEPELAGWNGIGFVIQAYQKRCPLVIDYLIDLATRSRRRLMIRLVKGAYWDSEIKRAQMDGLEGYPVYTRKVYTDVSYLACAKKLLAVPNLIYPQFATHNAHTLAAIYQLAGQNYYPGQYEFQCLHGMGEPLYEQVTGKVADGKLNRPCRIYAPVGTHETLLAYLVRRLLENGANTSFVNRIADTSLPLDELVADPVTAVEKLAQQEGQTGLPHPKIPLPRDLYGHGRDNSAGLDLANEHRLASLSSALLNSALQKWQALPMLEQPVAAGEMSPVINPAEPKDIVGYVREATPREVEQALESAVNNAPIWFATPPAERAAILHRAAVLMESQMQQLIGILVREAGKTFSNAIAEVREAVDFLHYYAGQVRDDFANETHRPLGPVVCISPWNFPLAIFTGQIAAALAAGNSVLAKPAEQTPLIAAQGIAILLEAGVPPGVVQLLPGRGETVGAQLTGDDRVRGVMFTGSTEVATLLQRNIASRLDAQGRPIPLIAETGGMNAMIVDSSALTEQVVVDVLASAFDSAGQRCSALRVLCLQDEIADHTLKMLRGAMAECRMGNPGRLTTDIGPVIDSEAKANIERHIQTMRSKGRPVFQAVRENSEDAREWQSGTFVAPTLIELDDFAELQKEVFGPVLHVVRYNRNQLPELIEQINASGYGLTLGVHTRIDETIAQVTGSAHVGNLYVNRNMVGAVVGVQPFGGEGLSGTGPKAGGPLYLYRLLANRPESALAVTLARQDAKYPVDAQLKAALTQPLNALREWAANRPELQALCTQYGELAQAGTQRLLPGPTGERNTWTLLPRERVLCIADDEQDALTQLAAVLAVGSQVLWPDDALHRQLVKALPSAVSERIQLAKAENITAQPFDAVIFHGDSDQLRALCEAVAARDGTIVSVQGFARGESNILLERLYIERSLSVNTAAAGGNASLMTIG
Chain of UniProt O80449 (whole entry, looked up): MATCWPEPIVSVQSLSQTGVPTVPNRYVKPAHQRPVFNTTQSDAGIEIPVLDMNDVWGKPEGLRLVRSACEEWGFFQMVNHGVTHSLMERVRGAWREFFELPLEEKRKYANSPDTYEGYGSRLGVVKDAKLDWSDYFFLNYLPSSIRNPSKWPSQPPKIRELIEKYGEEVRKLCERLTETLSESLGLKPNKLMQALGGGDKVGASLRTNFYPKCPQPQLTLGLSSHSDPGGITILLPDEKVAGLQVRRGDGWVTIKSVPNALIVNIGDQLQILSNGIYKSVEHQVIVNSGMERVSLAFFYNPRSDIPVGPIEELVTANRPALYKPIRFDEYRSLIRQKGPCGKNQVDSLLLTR

With `enzyme (Arabidopsis thaliana, UniProt O80449)` the kcat was 0.0315 s⁻¹ (CC/C=C\C[C@@H]1C(=O)CC[C@@H]1CC(=O)O; steady-state kinetics; pH 7.5, 20 °C).
With `B1 (enzyme)` the kcat was 19.4 s⁻¹ (C[C@@H]1O[C@@H](Oc2ccc([N+](=O)[O-])cc2)[C@@H](O)[C@H](O)[C@@H]1O; steady-state kinetics; pH 5, 40 °C).
With `CGCUUUAGG (ssRNA)` the Kd was 3.69 µM (U2AF2; sequencing of bound RNA; RNA; motif only).
For `B2 (enzyme)`, the kcat was 0.7 ± 0.05 s⁻¹ (CC(C)C[C@H](NC(=O)CC[C@@H](C)[C@H]1CC[C@H]2[C@@H]3[C@H](O)C[C@@H]4C[C@H](O)CC[C@]4(C)[C@H]3C[C@H](O)[C@]12C)C(=O)O; steady-state kinetics; pH 6.2, 37 °C).
With `B3 (enzyme C74S)` the kcat was 0.0683 ± 0.005 s⁻¹ (O=[N+]([O-])c1ccc(OP(=O)(O)O)cc1; steady-state kinetics; pH 7, 37 °C, added: Ni2+ 0.25 mM).
With `B4 (enzyme S252E)` the kcat was 180 ± 6 s⁻¹ (NC(=O)C1=CN([C@@H]2O[C@H](COP(=O)(O)OP(=O)(O)OC[C@H]3O[C@@H](n4cnc5c(N)ncnc54)[C@H](O)[C@@H]3O)[C@@H](O)[C@H]2O)C=CC1; steady-state kinetics; pH 7, 30 °C, apparent).
`B5 (DCK)` gave a kcat of 0.152 s⁻¹ (Nc1ccn([C@@H]2O[C@H](CO)[C@@H](O)C2(F)F)c(=O)n1; steady-state kinetics; pH 7.6, per site).
For `human UBR4`, “log2 fold change” read 0.25 (CYB5R4 knockout human cells; PP4 interaction, 3xFLAG-PP4C IP-MS; concentration not given; reference: CYB5R4 KO over parental).
With `B6 (enzyme)` the kcat was 0.24 ± 0.02 s⁻¹ (NC(=O)C1=CN([C@@H]2O[C@H](COP(=O)(O)OP(=O)(O)OC[C@H]3O[C@@H](n4cnc5c(N)ncnc54)[C@H](OP(=O)(O)O)[C@@H]3O)[C@@H](O)[C@H]2O)C=CC1; steady-state kinetics; pH 7, 30 °C, cofactor varied).
The kcat of `enzyme (Saccharina japonica, UniProt A0A097IUE3)` is reported as 23.3 ± 0.4 s⁻¹ (Nc1ncnc2c1ncn2[C@@H]1O[C@H](COP(=O)(O)OP(=O)(O)O)[C@@H](O)[C@H]1O; steady-state kinetics; pH 6.5, 25 °C, added: 16 mM PEP).
With `B7 (enzyme)` the kcat was 1 ± 0.1 s⁻¹ (O=C(O)CCS; steady-state kinetics; pH 8, 25 °C, added: O2).
The kcat of `enzyme (UniProt P0DY30)` is reported as 4.6 ± 0.25 s⁻¹ (CC(=O)N[C@H]1[C@H](Oc2ccc([N+](=O)[O-])cc2)O[C@H](CO)[C@@H](O)[C@@H]1O[C@@H]1O[C@H](CO)[C@H](O)[C@H](O)[C@H]1O; steady-state kinetics; pH 6, 50 °C).
`putA (Escherichia coli, UniProt P09546)` gave a kcat of 3.4 ± 0.2 s⁻¹ (COC1=C(OC)C(=O)C(CC=C(C)C)=C(C)C1=O; steady-state kinetics; pH 7.4, 20 °C, added: proline 200 mM).
For `B8 (enzyme)`, the kcat was 0.0367 s⁻¹ (Nc1nc2c(ncn2[C@@H]2O[C@H](COP(=O)(O)OP(=O)(O)OP(=O)(O)O)[C@@H](O)[C@H]2O)c(=O)[nH]1; steady-state kinetics; pH 7.5, 30 °C).
`B9 (enzyme)` gave a kcat of 0.79 ± 0.06 s⁻¹ (N[C@H](COP(=O)(O)O)Cc1c[nH]cn1; steady-state kinetics; pH 7.8, 25 °C).
For `spt R378K (Sphingomonas paucimobilis)`, the kcat was 0.35 ± 0.01 s⁻¹ (CCCCCCCCCCCC(=O)SCCNC(=O)CCNC(=O)[C@H](O)C(C)(C)COP(=O)(O)OP(=O)(O)OC[C@H]1O[C@@H](n2cnc3c(N)ncnc32)[C@H](O)[C@@H]1OP(=O)(O)O; steady-state kinetics; added: PLP).
The Kd of `CUUAUUUUU (ssRNA)` is reported as 9.11 µM (U2AF2; sequencing of bound RNA; RNA; motif only).
The kcat of `B10` is reported as 0.27 s⁻¹ (N[C@@H](CC(=O)O)C(=O)O; steady-state kinetics; pH 7.5, 25 °C, added: PMP 20 µM).
`acsA D449E (Pseudomonas chlororaphis)` has a kcat of 0.0517 ± 0.0117 s⁻¹ (O=C(O)CCC(F)(F)F; steady-state kinetics; pH 7).
